# Results collected from several papers.
# Each line is one published result; not all experiments were run side by side. ± gives the spread as reported.
# Route: oral
SMILES,test,test system,setting,AUC(0-24) [ng·h/mL]
C=C(C)[C@@H]1CC[C@]2(NCCN3CCS(=O)(=O)CC3)CC[C@]3(C)[C@H](CC[C@@H]4[C@@]5(C)CC=C(C6=CC[C@@](CF)(C(=O)O)CC6)C(C)(C)[C@@H]5CC[C@]43C)[C@@H]12,,"human, plasma","200 mg multiple doses, day 1",8260
CCS(=O)(=O)N1CC(CC#N)(n2cc(-c3ncnc4[nH]ccc34)cn2)C1,,"healthy Chinese human subjects, plasma","10 mg, single dose, mean",740
O=c1[nH]c(=O)c(Cc2cccc(C(F)(F)F)c2)c([C@H]2CC[C@H](c3ccccc3)CC2)[nH]1,,"human, plasma","900 mg once daily, day 1, geometric mean",4760
CC(C)[C@H](N)C(=O)NCCCS(=O)(=O)O,,"human, plasma","340 mg capsule, day 14, fasted, multiple dosing",13800 ± 3350
O=C(c1ccc(F)c(F)c1Nc1ccc(I)cc1F)N1CC(O)([C@@H]2CCCCN2)C1,,"human, plasma","60 mg, steady state",4340
CC(C)(Sc1ccncc1-c1ccc(C#N)c2ccccc12)C(=O)O,,"human, male, Japanese, plasma","5 mg, day 6, fed, single dose",60.3
O=c1[nH]c(=O)c2c[nH]nc2[nH]1,,"human male, plasma","300 mg once daily, geometric LS mean",255000
CC(C)(Sc1ccncc1-c1ccc(C#N)c2ccccc12)C(=O)O,,"human, male, plasma","2.5 mg once daily, day 14, with: febuxostat 80 mg once daily",34.6
Cc1nc(Nc2ncc(C(=O)Nc3c(C)cccc3Cl)s2)cc(N2CCN(CCO)CC2)n1,,"human, plasma","100 mg single dose, day 6 fasted, arithmetic mean, with: omeprazole 40 mg daily steady state, 10 h before",90.6 ± 38.1
CCN1C(=O)CNc2ncc(-c3ccc(-c4nc[nH]n4)nc3C)nc21,"LC-MS, noncompartmental","human, plasma","15 mg twice daily, first dose",1360
CC(C)[C@@H](CS(=O)(=O)C(C)C)N1C(=O)[C@@](C)(CC(=O)O)C[C@H](c2cccc(Cl)c2)[C@H]1c1ccc(Cl)cc1,,healthy human,"60 mg single dose, old tablet, fasted",1980
CC(C)c1nc(CN(C)C(=O)N[C@H](C(=O)N[C@@H](Cc2ccccc2)C[C@H](O)[C@H](Cc2ccccc2)NC(=O)OCc2cncs2)C(C)C)cs1,,"HIV-infected humans, plasma","100 mg once daily, with: atazanavir 300 mg",7590
